{"data": "Published values from different studies", "CASP10": "Caspase-10 (CASP10, Homo sapiens, UniProt Q92851)", "DCPS": "m7GpppX diphosphatase (DCPS, Homo sapiens, UniProt Q96C86)", "ADRA1A": "Alpha-1A adrenergic receptor (ADRA1A, Homo sapiens, UniProt P35348)", "HSD3B1": "3 beta-hydroxysteroid dehydrogenase/Delta 5-->4-isomerase type 1 (HSD3B1, Homo sapiens, UniProt P14060)", "note": "Values joined by “and” are separate records of one study, mostly repeats; a detail may differ. Numbers after ± are the reported error.", "sequence of UniProt Q13148 (whole entry, looked up)": "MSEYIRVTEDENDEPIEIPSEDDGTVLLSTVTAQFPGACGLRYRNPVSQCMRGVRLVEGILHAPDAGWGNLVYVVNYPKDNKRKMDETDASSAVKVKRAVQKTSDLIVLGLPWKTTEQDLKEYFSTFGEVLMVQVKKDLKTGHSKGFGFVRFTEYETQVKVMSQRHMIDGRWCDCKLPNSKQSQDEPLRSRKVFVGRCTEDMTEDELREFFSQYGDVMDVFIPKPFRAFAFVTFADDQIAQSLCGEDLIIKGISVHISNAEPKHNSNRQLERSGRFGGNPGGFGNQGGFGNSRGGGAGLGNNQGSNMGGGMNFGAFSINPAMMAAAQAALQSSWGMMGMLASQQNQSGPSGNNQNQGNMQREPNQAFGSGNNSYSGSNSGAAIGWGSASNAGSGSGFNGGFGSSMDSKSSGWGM", "sequence of UniProt Q92851 (whole entry, looked up)": "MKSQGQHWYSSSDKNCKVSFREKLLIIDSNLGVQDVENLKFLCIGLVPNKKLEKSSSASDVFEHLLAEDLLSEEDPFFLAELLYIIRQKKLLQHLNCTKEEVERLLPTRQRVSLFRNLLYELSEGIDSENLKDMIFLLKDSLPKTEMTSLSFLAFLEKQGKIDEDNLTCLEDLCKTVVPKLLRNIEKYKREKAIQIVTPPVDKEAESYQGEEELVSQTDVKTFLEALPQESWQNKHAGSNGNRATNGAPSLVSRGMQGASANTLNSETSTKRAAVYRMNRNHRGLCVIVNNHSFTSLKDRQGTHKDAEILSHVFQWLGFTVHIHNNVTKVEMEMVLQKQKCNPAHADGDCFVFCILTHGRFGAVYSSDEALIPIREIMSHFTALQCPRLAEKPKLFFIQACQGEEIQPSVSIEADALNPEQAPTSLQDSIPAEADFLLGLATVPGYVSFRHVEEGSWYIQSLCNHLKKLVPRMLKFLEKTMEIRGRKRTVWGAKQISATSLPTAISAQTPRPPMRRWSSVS", "sequence of UniProt P35348 (whole entry, looked up)": "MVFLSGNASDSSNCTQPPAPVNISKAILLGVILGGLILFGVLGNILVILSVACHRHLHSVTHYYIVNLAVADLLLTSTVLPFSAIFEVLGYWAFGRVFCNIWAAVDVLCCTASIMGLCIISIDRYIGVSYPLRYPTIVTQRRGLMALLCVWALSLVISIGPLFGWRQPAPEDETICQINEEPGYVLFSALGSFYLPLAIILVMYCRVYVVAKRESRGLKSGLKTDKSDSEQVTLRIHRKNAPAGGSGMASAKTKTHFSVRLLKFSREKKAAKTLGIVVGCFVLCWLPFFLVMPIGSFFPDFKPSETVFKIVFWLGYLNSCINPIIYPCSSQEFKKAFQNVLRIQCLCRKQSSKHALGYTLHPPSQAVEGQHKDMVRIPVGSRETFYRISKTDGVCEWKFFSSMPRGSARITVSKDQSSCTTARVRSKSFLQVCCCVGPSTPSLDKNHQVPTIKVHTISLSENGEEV", "sequence of UniProt P14060 (whole entry, looked up)": "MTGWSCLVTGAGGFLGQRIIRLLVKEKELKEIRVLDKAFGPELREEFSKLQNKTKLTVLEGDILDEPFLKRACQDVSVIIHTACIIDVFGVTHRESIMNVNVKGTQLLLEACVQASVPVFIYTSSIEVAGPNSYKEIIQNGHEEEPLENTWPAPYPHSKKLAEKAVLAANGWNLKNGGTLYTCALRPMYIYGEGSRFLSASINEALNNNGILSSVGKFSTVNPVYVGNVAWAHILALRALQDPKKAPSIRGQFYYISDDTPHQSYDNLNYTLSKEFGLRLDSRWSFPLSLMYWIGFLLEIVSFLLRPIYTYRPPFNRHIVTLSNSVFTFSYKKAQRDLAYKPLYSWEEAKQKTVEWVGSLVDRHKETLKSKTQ", "sequence of UniProt P35821 (whole entry, looked up)": "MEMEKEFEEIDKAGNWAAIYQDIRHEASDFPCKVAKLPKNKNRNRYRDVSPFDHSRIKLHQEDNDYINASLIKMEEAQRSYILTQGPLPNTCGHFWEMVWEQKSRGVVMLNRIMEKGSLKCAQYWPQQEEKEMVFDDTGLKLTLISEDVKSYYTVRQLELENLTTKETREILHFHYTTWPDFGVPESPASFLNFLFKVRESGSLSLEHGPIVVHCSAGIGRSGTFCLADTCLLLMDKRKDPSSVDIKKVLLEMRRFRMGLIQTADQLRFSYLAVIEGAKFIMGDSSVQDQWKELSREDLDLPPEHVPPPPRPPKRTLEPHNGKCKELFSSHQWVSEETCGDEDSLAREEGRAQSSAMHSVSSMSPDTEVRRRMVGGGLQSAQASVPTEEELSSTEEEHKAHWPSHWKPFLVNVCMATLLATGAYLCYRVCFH", "sequence of UniProt Q96C86 (whole entry, looked up)": "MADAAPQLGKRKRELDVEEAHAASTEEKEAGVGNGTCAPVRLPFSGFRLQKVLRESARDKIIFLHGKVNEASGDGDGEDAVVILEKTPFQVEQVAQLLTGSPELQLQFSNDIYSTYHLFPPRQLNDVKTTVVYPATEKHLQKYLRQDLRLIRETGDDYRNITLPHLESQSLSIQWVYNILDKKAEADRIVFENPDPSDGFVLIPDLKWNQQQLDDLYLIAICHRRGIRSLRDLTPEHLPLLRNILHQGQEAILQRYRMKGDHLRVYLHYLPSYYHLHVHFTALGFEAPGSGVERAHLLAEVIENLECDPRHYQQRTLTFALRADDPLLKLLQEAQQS", "sequence of UniProt Q13867 (whole entry, looked up)": "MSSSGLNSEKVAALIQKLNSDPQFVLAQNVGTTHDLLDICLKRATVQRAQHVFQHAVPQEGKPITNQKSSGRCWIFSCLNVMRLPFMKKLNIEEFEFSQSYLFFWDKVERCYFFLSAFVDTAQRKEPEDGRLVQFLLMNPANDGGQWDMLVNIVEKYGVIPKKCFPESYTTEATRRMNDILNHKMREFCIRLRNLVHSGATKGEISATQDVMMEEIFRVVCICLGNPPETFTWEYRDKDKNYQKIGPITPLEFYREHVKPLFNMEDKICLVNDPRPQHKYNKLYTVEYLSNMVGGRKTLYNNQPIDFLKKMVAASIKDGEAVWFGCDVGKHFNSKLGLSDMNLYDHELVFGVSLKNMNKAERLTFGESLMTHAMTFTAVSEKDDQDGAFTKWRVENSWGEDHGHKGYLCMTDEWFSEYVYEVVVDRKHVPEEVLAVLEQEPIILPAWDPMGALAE", "sequence of UniProt Q6P2M8 (whole entry, looked up)": "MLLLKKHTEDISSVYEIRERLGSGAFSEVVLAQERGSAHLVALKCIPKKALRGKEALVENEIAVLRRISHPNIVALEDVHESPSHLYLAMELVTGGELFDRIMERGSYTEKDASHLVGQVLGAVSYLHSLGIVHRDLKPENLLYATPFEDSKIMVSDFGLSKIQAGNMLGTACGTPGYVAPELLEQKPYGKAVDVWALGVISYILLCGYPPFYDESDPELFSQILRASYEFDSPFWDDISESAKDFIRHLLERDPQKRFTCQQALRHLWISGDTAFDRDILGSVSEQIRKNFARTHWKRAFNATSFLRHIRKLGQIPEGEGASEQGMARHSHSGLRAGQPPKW", "sequence of UniProt P48544 (whole entry, looked up)": "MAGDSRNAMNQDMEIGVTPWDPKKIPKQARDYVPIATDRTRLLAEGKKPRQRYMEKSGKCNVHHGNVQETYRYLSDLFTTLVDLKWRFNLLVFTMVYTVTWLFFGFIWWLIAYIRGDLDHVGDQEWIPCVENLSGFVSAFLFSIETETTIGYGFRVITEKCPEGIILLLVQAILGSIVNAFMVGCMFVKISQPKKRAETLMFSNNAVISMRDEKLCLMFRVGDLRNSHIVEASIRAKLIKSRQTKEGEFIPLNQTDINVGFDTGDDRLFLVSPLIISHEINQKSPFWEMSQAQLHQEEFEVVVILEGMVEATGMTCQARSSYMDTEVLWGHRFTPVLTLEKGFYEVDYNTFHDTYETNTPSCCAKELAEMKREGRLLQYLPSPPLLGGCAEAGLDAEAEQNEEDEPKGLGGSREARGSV", "sequence of UniProt Q9UGN5 (whole entry, looked up)": "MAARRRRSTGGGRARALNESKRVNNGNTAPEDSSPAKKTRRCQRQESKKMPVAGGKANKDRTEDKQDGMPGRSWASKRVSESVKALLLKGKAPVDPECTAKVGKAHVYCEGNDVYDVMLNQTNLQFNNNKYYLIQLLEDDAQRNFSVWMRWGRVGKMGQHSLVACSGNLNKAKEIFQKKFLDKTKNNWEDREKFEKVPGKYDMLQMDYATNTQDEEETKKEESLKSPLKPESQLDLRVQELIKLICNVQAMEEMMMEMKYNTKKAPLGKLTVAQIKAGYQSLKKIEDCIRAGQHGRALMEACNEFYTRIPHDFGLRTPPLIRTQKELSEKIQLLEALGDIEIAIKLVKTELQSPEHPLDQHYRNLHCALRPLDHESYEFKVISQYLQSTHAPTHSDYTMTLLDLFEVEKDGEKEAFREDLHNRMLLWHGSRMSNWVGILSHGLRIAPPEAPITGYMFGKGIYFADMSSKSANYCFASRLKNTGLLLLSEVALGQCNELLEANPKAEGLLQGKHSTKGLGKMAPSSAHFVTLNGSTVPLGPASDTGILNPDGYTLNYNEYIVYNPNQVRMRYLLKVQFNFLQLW", "sequence of UniProt Q9HB29 (whole entry, looked up)": "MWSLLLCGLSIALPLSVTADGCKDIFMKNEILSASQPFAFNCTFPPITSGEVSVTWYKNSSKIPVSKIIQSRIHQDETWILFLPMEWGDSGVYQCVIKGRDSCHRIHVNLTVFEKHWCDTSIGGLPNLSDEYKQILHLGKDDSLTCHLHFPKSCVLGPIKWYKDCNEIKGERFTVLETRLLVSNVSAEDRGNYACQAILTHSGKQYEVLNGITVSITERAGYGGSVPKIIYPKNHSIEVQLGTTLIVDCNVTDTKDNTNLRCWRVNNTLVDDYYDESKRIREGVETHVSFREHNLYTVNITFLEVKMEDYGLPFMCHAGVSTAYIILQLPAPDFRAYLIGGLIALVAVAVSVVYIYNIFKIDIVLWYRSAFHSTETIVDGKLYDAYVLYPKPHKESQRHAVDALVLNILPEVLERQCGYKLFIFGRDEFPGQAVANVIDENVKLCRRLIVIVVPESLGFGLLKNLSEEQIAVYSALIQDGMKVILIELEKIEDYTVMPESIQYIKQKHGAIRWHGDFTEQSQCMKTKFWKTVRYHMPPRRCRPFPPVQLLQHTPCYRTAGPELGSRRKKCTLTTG"}
{"Compound": "CC[C@H](NC(=O)[C@H](CC(C)C)NC(=O)[C@H](CC(=O)O)NC(C)=O)C(=O)N[C@@H](CC(=O)O)C(=O)COC(=O)c1c(C)cccc1C", "target": "CASP10", "test": "enzyme activity, inhibitor", "quantity": "kinact/KI", "value": "137000 M⁻¹ s⁻¹"}
{"Compound": "C[n+]1cn([C@@H]2O[C@H](COP(=O)(O)OP(=O)([O-])OP(=O)(O)O)[C@@H](O)[C@H]2O)c2nc(N)nc(O)c21", "target": "DCPS", "test": "substrate, HPLC", "conditions": "concentration not given, 120 min", "quantity": "hydrolysis", "value": "77.6 ± 1.6%"}
{"Compound": "O=C1c2sc(-c3ccc(N4CCC(CO)CC4)nc3F)nc2CCN1c1cccnc1", "target": "TAR DNA-binding protein 43, aggregated (TARDBP, Homo sapiens, UniProt Q13148)", "test": "radioligand binding", "test system": "human, FTLD-TDP type C sarkosyl-insoluble extract", "conditions": "13.55 nM", "quantity": "specific binding", "value": "0.225 nM and 0.286 nM and 0.194 nM"}
{"Compound": "O=C(NC[C@@H](Cc1ccc(F)cc1)N1CCC(O)(C(F)(F)F)CC1)C1(c2ccc(Cl)cc2)CCCC1", "target": "TRPA1 (Homo sapiens, UniProt O75762, M953V)", "test": "calcium influx, agonist", "scale": "relative to: M953V mutant over wild type", "quantity": "EC50 fold change", "value": 15.3}
{"Compound": "CCCCCC(O)/C=C/C=O (centres unmarked)", "target": "Desumoylating isopeptidase 1 (DESI1, Homo sapiens, UniProt Q6ICB0)", "test": "competitive isoTOP-ABPP", "test system": "proteome, soluble, MDA-MB-231", "conditions": "100 µM, together with: iodoacetamide probe", "scale": "relative to: DMSO over compound-treated, higher = stronger cysteine blockade", "quantity": "isoTOP-ABPP competition ratio", "value": 1.8}
{"Compound": "O=c1cc(Nc2cccc(O)c2)c2ccccc2o1", "target": "ADRA1A", "test": "intracellular Ca2+ mobilization, agonist", "test system": "COS-7", "conditions": "500 µM", "scale": "relative to: 3 µM ionomycin", "quantity": "agonist activity", "value": "7.39 ± 4.17%"}
{"Compound": "O=C(CCCc1ccc2c(c1)OCCO2)NCCNC(=O)Cn1c(=O)[nH]c(=O)c2ccccc21", "target": "PARP2 (Homo sapiens, UniProt Q9UGN5)", "test": "enzyme activity, inhibitor", "conditions": "0.104 µM", "quantity": "inhibition", "value": "100%"}
{"Compound": "CCc1ccc2oc(=O)cc(Cn3ccnc3)c2c1", "target": "ADRA1A", "test": "intracellular Ca2+ mobilization, agonist", "test system": "COS-7", "conditions": "500 µM", "scale": "relative to: 3 µM ionomycin", "quantity": "agonist activity", "value": "13.9 ± 6.44%"}
{"Compound": "CN(C)Cc1cc(-c2coc3cc(O)ccc3c2=O)ccc1F", "target": "HSD3B1", "test": "[3H]-DHEA conversion", "test system": "LNCaP", "conditions": "0.1 µM, normalized to protein, unit not given", "scale": "relative to: vehicle", "quantity": "DHEA metabolism", "value": 1.46}
{"Compound": "CCC[C@H](NC(=O)[C@H](CC(=O)O)NC(C)=O)C(=O)N1[C@H](C(=O)N[C@@H](CC(=O)O)C(=O)COC(=O)c2c(C)cccc2C)C[C@@H]2CCCC[C@@H]21", "target": "CASP10", "test": "enzyme activity, inhibitor", "quantity": "kinact/KI", "value": "165000 M⁻¹ s⁻¹"}
{"Compound": "CCCCCC=CC=C1C(=O)C=CC1CC=CCCCC(=O)O (centres unmarked)", "target": "Bleomycin hydrolase (Homo sapiens, UniProt Q13867)", "test": "competitive isoTOP-ABPP", "test system": "Ramos soluble proteome", "conditions": "100 µM, 60 min, together with: iodoacetamide probe", "scale": "relative to: DMSO over compound-treated, higher = stronger cysteine blockade", "quantity": "isoTOP-ABPP competition ratio", "value": 10}
{"Compound": "Cc1cc(C)cc(COc2cc3c(cc2OCc2cc(C)cc(C)c2)C2CC(O)(Cc4cn(CCOCCOCCNC(=O)CCCCC5SCC6NC(=O)NC65)nn4)CC(C)N2CC3)c1 (centres unmarked)", "target": "ATP synthase peripheral stalk subunit OSCP, mitochondrial (Homo sapiens, UniProt P48047)", "test": "biotinylated probe pull-down, item: ATP5PO", "conditions": "10 µM probe", "scale": "relative to: heavy over light", "quantity": "SILAC ratio", "value": 2.17}
{"Compound": "Cc1cn(CC(=O)N(CCNC(=O)CN(CCNC(=O)CN(CCNC(=O)CN(CCNC(=O)CN(CCNC(=O)CN(CCNC(=O)CN(CCNC(=O)CN(CCN)C(=O)Cn2cnc3c(=O)[nH]c(N)nc32)C(=O)Cn2cnc3c(N)ncnc32)C(=O)Cn2cc(C)c(=O)[nH]c2=O)C(=O)Cn2cnc3c(=O)[nH]c(N)nc32)C(=O)Cn2cc(C)c(=O)[nH]c2=O)C(=O)Cn2cnc3c(=O)[nH]c(N)nc32)C(=O)Cn2cnc3c(N)ncnc32)CC(=O)NCCN(CC(=O)NCCOCCOCC(N)=O)C(=O)Cn2cnc3c(N)ncnc32)c(=O)[nH]c1=O", "target": "complementary DNA", "test": "duplex formation, UV melting curve fit", "test system": "PBS", "conditions": "1 µM", "quantity": "ΔS", "value": "-186 ± 6.2 cal/mol/K"}
{"Compound": "O=C(Cc1ccc(OCc2ccccc2)cc1)NC1(C(=O)O)CCN(C(=O)c2ccc(-c3cccc(Cl)c3)cc2)CC1", "target": "MOK (Homo sapiens, UniProt Q9UQ07)", "test": "enzyme activity, inhibitor", "conditions": "10 µM", "quantity": "activity vs control", "value": "119%"}
{"Compound": "C=CC(=O)N1CCCC(n2c(=O)c3ncccc3n(Cc3ccc(Oc4ccccc4)cc3)c2=O)C1 (centres unmarked)", "target": "Secernin-1 (SCRN1, Homo sapiens, UniProt Q12765)", "test": "thermal proteome profiling, item: SCRN1", "conditions": "10 µM, destabilized proteins, unit not given", "scale": "relative to: vehicle", "quantity": "melting temperature shift", "value": -4.71}
{"Compound": "C[n+]1cn(C2OC(COP(=O)(O)OP(=O)([O-])C(Cl)(Cl)P(=O)(O)OP(=O)(O)OCC3OC(n4cnc5c(=O)[nH]c(N)nc54)C(O)C3O)C(O)C2O)c2nc(N)nc(O)c21 (centres unmarked)", "target": "DCPS", "test": "substrate, HPLC", "conditions": "concentration not given, 30 min", "quantity": "hydrolysis", "value": "0%"}
{"Compound": "O=C(COc1ccc(C(F)(F)F)cc1C(F)(F)F)Nc1cc(C2CCC2)nn1CC(F)(F)F", "target": "Kir3.1/Kir3.4 (Homo sapiens, UniProt P48544+P48549)", "test": "thallium flux, activator", "test system": "HEK293", "scale": "relative to: standard compound", "quantity": "Emax", "value": "< 10%"}
{"Compound": "C[C@@H](Nc1nc(N[C@H](C)C(F)(F)F)nc(-c2cccc(Cl)n2)n1)C(F)(F)F", "target": "IDH1 (Homo sapiens, UniProt O75874, R132H)", "test": "item: 2-hydroxyglutarate", "test system": "HCT-116", "quantity": "maximal inhibition", "value": "90%"}
{"Compound": "CCCC[C@H](NC(C)=O)C(=O)N[C@@H](CCCC(=O)O)C(=O)N1CCC[C@H]1C(=O)N[C@@H](CC(=O)O)C(=O)COC(=O)c1c(C)cccc1C", "target": "Caspase-8 (CASP8, Homo sapiens, UniProt Q14790)", "test": "enzyme activity, inhibitor", "quantity": "kinact/KI", "value": "2.28e+06 M⁻¹ s⁻¹"}
{"Compound": "CC(C)[C@@H]1NC(=O)[C@H](Cc2ccccc2)NC(=O)CSC[C@@H](C(N)=O)NC(=O)[C@H](CCC(=O)O)NC(=O)[C@H](CO)NC(=O)[C@H](Cc2c[nH]c3cccc(Cl)c23)NC(=O)[C@H](C2CCCCC2)NC(=O)[C@H](C(C)C)NC(=O)[C@H](Cc2ccc(O)cc2)NC(=O)[C@H](CC(=O)O)NC(=O)[C@H](Cc2c[nH]c3ccccc23)NC(=O)[C@H](Cc2ccc(N)nc2)NC(=O)[C@H](Cc2c[nH]c3ccc(Cl)cc23)NC(=O)[C@H](CCC(=O)O)NC1=O", "target": "Interleukin-1 receptor-like 2 (IL1RL2, Homo sapiens, UniProt Q9HB29)", "test": "reporter gene (SEAP), inhibitor, HEK-Blue IL-36R reporter", "test system": "HEK-Blue IL-36R cells", "conditions": "0.046 µM, 6 h, together with: IL-36β 10 ng/mL", "quantity": "remaining activity", "value": "102%"}
{"Compound": "Fc1ccc(Nc2nc(NC3CCCCC3)c3cc(Br)ccc3n2)cc1F", "target": "ADRB2 (Homo sapiens, UniProt P07550, I153L)", "test": "β-arrestin2 recruitment, antagonist, BRET", "conditions": "mutant I153L", "scale": "relative to: isoprenaline maximal response", "quantity": "maximal inhibition", "value": "1.5%"}
{"Compound": "COc1ccc(NC(=O)Nc2ccc3c(c2)C(=O)N(C(C)CO)CC(C)C(CN(C)Cc2ccc4c(c2)OCO4)O3)cc1 (centres unmarked)", "target": "Insulin receptor (INSR, Homo sapiens, UniProt P06213)", "test": "binding, competition with immobilised ligand", "conditions": "10 µM", "quantity": "remaining binding", "value": "36%"}
{"Compound": "CC1(C)C[C@@H](Nc2cccc(-c3sc(C(=O)O)c(OCC(=O)O)c3Cl)c2)CCN1S(=O)(=O)Cc1cccc(NC(=O)CN2CCC(c3ccc4c(c3)oc(=O)n4C3CCC(=O)NC3=O)CC2)c1 (some centres unmarked)", "target": "Tyrosine-protein phosphatase non-receptor type 1 (Mus musculus, UniProt P35821)", "test": "degrader, Western blot", "test system": "B16-F10", "conditions": "0.01 µM", "quantity": "remaining protein", "value": "95.7% and 78.7%"}
{"Compound": "CN1CCN(Cc2cc(-c3coc4cc(O)ccc4c3=O)ccc2Cl)CC1", "target": "HSD3B1", "test": "[3H]-DHEA conversion", "test system": "LNCaP", "conditions": "0.1 µM, normalized to protein, unit not given", "scale": "relative to: vehicle", "quantity": "DHEA metabolism", "value": 2.23}
{"Compound": "CC(=O)N[C@@H](Cc1c[nH]c2ccccc12)C(=O)N[C@@H](CCC(=O)O)C(=O)N[C@@H](Cc1c[nH]cn1)C(=O)N[C@@H](CC(=O)O)C(=O)COC(=O)c1c(C)cccc1C", "target": "CASP10", "test": "inhibitor", "conditions": "recombinant enzyme", "quantity": "kobs/[I]", "value": "107000 M⁻¹ s⁻¹"}
{"Compound": "Cc1cnc2nc1Nc1cccc(c1)COC/C=C/COCc1cc(ccc1OCCN1CCOCC1)N2", "target": "PNCK (Homo sapiens, UniProt Q6P2M8)", "test": "binding", "conditions": "0.1 µM", "quantity": "remaining binding", "value": "84%"}
{"Compound": "C#CCOC(=O)[C@@]1(C)C=C(C(=O)OC(C)(C)C)C(=O)CC1", "target": "MAPK8 (Homo sapiens, UniProt P45983)", "test": "enzyme activity, D-SENSOR", "conditions": "4.938 µM, mean of replicates", "quantity": "normalized kinase activity", "value": 0.9}
{"Compound": "C[Si](C)(C)C[C@H](CN)CC(=O)O", "target": "CNR1 (Homo sapiens, UniProt P21554)", "test": "ligand displacement, radioligand", "conditions": "250 µM", "quantity": "inhibition", "value": "10%"}
{"Compound": "COc1ccccc1-c1ccncc1C(=O)Nc1nnc(OCc2ccc(Cl)cc2)s1", "target": "DNA polymerase theta, helicase domain (POLQ, Homo sapiens, UniProt O75417)", "test": "ATPase activity, ADP-Glo", "conditions": "0.015 µM, together with: ATP 600 µM", "quantity": "remaining activity", "value": "64%"}
{"note": "A few entries again:"}
{"Compound": "Cc1cn(CC(=O)N(CCNC(=O)CN(CCNC(=O)CN(CCNC(=O)CN(CCNC(=O)CN(CCNC(=O)CN(CCNC(=O)CN(CCNC(=O)CN(CCN)C(=O)Cn2cnc3c(=O)[nH]c(N)nc32)C(=O)Cn2cnc3c(N)ncnc32)C(=O)Cn2cc(C)c(=O)[nH]c2=O)C(=O)Cn2cnc3c(=O)[nH]c(N)nc32)C(=O)Cn2cc(C)c(=O)[nH]c2=O)C(=O)Cn2cnc3c(=O)[nH]c(N)nc32)C(=O)Cn2cnc3c(N)ncnc32)CC(=O)NCCN(CC(=O)NCCOCCOCC(N)=O)C(=O)Cn2cnc3c(N)ncnc32)c(=O)[nH]c1=O", "target": "complementary DNA", "test": "duplex formation, UV melting curve fit", "test system": "PBS", "conditions": "1 µM", "quantity": "ΔS", "value": "-186 ± 6.2 cal/mol/K"}
{"Compound": "Fc1ccc(Nc2nc(NC3CCCCC3)c3cc(Br)ccc3n2)cc1F", "target": "ADRB2 (Homo sapiens, UniProt P07550, I153L)", "test": "β-arrestin2 recruitment, antagonist, BRET", "conditions": "mutant I153L", "scale": "relative to: isoprenaline maximal response", "quantity": "maximal inhibition", "value": "1.5%"}
